# Measurements of several laboratories.
# Each numbered part is a random draw from the data of one study; scales do not carry over between parts.

# Series 1 — method: RNA Bind-n-Seq; form: RNA; medium: in vitro; tested at: not given; reference: input RNA pool; direction: higher = stronger binding
# Target: RING finger protein unkempt homolog, zinc fingers 1-6, GST-SBP tag (UNK, Homo sapiens, UniProt Q9C0B0, residues 30-357)
# Sequence of UniProt Q9C0B0 (30-357, looked up): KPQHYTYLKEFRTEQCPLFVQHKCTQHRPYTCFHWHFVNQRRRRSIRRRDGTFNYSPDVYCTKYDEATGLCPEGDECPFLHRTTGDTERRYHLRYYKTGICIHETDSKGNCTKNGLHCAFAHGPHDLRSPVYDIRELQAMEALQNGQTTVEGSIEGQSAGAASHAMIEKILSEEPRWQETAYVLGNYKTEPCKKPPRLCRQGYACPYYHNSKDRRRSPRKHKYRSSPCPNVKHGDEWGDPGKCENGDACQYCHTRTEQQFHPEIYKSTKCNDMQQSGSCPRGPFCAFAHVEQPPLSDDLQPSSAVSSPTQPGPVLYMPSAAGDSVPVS
# Notes: RNA with constant flanks, human and mouse sites, ends assumed
Sequence,bound/input enrichment [ratio]
GGGAGUUCUACAGUCCGACGAUCGUCUGGGGUACACCUGGACAGGUGUAUGAUGUGGAGGAGGUGGAUGUGAAAGAUCCUAACUAUGAUGAUGACCAGGAGAACUGUGUUUAUGAAACUGUAGUUUUGCCUUUGGAUGAAAGGCAACAGAGGAUUGAGCAUCA,0.39
GGGAGUUCUACAGUCCGACGAUCUAAAUGGUAUUUUUUUUAAAUGUCAGCUCUUCCAUAAUUCAGUCUAGAUAGGAGAUUAUUUAACUGAAGAUCUUGGUGAGUGUCAUUUUUUUUUCUUUUUUCUUUUUUUGGUUUUUCAAGCAACAGAGGAUUGAGCAUCA,1.77
GGGAGUUCUACAGUCCGACGAUCAUCUGUUUCACUCUACUAUACUGGAGAGAAAGGUCAAAGGCAAGAGAGAACUGGAAAGACCAGCACUUGGAGUGGUAAGUUAAAGGGUUUAUUGUGUAGUGGGAACAGGAAUCAUUUGUACAACAGAGGAUUGAGCAUCA,0.472
GGGAGUUCUACAGUCCGACGAUCGGAUUCAGGAACAUCAUCGCAGAUCCUGUCACCUUCAAGACCAAAUCGAGCUAUGUUGCCUUAGCUACAUUGCAAGCCUACACCUCUAUGCAUCUAUUUUUCCAAUUCAAGACAACAUCUCAACAGAGGAUUGAGCAUCA,0.602

# Series 2 — method: protein binding microarray; form: double-stranded DNA, one strand shown; medium: in vitro; tested at: not given; reference: not given; direction: higher = stronger binding
# Target: Histone acetyltransferase KAT6A, winged helix 2, GST fusion (KAT6A, Homo sapiens, UniProt Q92794, residues 85-181)
# Notes: 8-mer, flanks averaged, mean of 2 arrays, mostly near background
# Residues (chain): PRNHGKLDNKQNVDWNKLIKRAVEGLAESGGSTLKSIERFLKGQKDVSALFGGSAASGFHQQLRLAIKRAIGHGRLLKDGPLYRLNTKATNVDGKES
Sequence,E-score
CCGGTCTA,-0.105
CGTCCCAA,0.148
GAATAATA,0.0012
GCGAAGCC,0.15

# Series 3 — method: aptamer microarray, sandwich; form: DNA with 2'F-ANA; medium: in vitro; tested at: 200 nM; together with: Cy3 exosite-II aptamer, 400 nM; direction: higher = stronger binding
# Target: Prothrombin, mature alpha-thrombin (F2, Homo sapiens, UniProt P00734)
# Notes: whole 15-mer aptamer, many near background
Sequence,mean fluorescence intensity
GGTTGGTGTGGTTGG (2'F-ANA at 1 2 3 5 6 7 9 11 12 15),84.6 a.u.
GGTTGGTGTGGTTGG (2'F-ANA at 2 4 6 10 11 12 15),98.6 a.u.
GGTTGGTGTGGTTGG (2'F-ANA at 1 2 3 6 9 12 13 14 15),227 a.u.
GGTTGGTGTGGTTGG (2'F-ANA at 1 3 6 8 10 12 15),105 a.u.

# Single results of other studies
Molecule,target,assay,test system,conditions,how to read,endpoint,value
"PhoQ, residues 284 288 289 292 302 303 AGCYAI","PhoP, residues 12 14 15 18 19 LWHCS (Escherichia coli, UniProt P23836)","Sort-seq, refers to: YFP reporter",E. coli,"PhoQ-PhoP variant library, together with: 10 µM Mg2+","reference: high Mg2+ state, higher = stronger signaling",fold induction,18.5

# Excerpt of the above (series 3):
Sequence,mean fluorescence intensity
GGTTGGTGTGGTTGG (2'F-ANA at 1 2 3 5 6 7 9 11 12 15),84.6 a.u.
GGTTGGTGTGGTTGG (2'F-ANA at 2 4 6 10 11 12 15),98.6 a.u.
